# Results gathered from unrelated publications.
# ± gives the spread as reported.
Structure (SMILES),assay,test system,conditions,scale,endpoint,result
CC[C@H](C)[C@H](NC(=O)[C@H](CCCCN)NC(=O)[C@H](CCCCN)NC(=O)[C@H](Cc1ccccc1)NC(=O)[C@H](CC(C)C)NC(=O)[C@H](CCCCN)NC(=O)[C@H](Cc1c[nH]c2ccccc12)NC(=O)[C@@H](CCCCN)NC(C)=O)C(=O)NCC(=O)N[C@@H](C)C(=O)N[C@H](C(=O)N[C@@H](CC(C)C)C(=O)N[C@H](CCCCN)C(=O)N[C@H](C(=O)N[C@@H](CC(C)C)C(N)=O)C(C)C)C(C)C,circular dichroism,PE:PG:CL liposomes,"60 µM, lipid to peptide ratio 1",reference: reference peptide,helical content,~84%
CN[C@](C)(C[18F])C(=O)O,,"SCID mouse MDA-MB-468 xenograft, brain","30 min, post injection",,tissue uptake,0.3 ± 0.1 %ID/g
COC1CC(OC2CCC3(C)C(CCC45OC46CCC(C(C)=O)C6(C)C(OC(C)=O)C(OC(=O)c4ccccc4)C35)C2)OC(C)C1OC1OC(C)C(O)C(OC)C1O (centres unmarked),,Caco-2,10 µM,,Papp A→B,7.66 ×10⁻⁶ cm/s
CC[C@H](C)[C@H](NC(=O)[C@H](CCCCN)NC(=O)CNC(=O)[C@H](CC(C)C)NC(=O)[C@@H](NC(=O)[C@H](C)NC(=O)[C@H](CCCCN)NC(=O)CNC(=O)[C@H](C)NC(=O)CNC(=O)[C@H](CCCCN)NC(=O)[C@H](CCSC)NC(=O)[C@H](CCCCN)NC(=O)[C@@H](NC(=O)[C@H](Cc1c[nH]c2ccccc12)NC(=O)[C@H](CC(C)C)NC(=O)[C@H](CCC(=O)O)NC(=O)[C@H](CCCCN)NC(=O)[C@H](CC(C)C)NC(=O)[C@@H](N)CC(C)C)[C@@H](C)O)C(C)C)C(=O)N[C@@H](CCCCN)C(=O)NCC(=O)N[C@@H](CC(C)C)C(=O)N[C@@H](CC(C)C)C(=O)O,acrylamide quenching,"DOPC vesicles, 250 µM lipid","2 µM, with: acrylamide",,Stern-Volmer constant,2.49 ± 0.32 M⁻¹
CC(C)C[C@@H](NC(=O)[C@@H](C)NC(=O)[C@@H](CC(C)C)NC(=O)[C@@H](CCCCN)NC(=O)[C@H](N)CCCCN)C(=O)N[C@H](Cc1c[nH]cn1)C(=O)N[C@H](C)C(=O)N[C@H](CC(C)C)C(=O)N[C@H](CCCCN)C(=O)N[C@H](CCCCN)C(=O)N[C@H](Cc1c[nH]c2ccccc12)C(=O)N[C@H](CC(C)C)C(=O)N[C@H](Cc1c[nH]cn1)C(=O)N[C@H](C)C(=O)N[C@H](CC(C)C)C(=O)N[C@H](CCCCN)C(=O)N[C@H](CCCCN)C(=O)N[C@H](CC(C)C)C(=O)N[C@H](C)C(=O)N[C@H](Cc1c[nH]cn1)C(=O)N[C@H](CC(C)C)C(=O)N[C@H](C)C(=O)N[C@H](CC(C)C)C(=O)N[C@H](CCCCN)C(=O)N[C@H](CCCCN)C(N)=O,haemolysis,human erythrocytes,"30 min, pH 7.4, 37 °C",,HC50,20.3 ± 2.42 µM
CC(=CCC(O)C(C)=Cc1csc(C)n1)CC=CC(C)C(O)C(C)C(=O)C(C)(C)C(O)CC(=O)O (centres unmarked),,"human, plasma","intravenous infusion, 36 mg/m2 KOS-1584, 3 h infusion, cycle 1",reference: metabolite over KOS-1584,AUC ratio,9.76 ± 6.76%
CC1COC2=C1C(=O)C(=O)c1c2ccc2c1C(OC(=O)CNC(=O)CN)CCC2(C)C (mixture of isomers),,n-octanol/water,25 °C,,logP,1.27
C/C=C/C=C/C/C=C/CCCCCCCc1cccc(O)c1O,,"male Wistar rat, plasma","intravenous, 20 mg/kg",,AUC,25.8 µg·h/mL
CC(CCC(=O)NCC(=O)O)C1CCC2C3C(O)CC4CC(OC5OC(C(=O)O)C(O)C(O)C5O)CCC4(C)C3CCC12C (centres unmarked),,"human, SLCO1B1 c.521 T/C, plasma","fasting, geometric mean, sex-adjusted",,plasma concentration,44.6 ng/mL
COc1ccc(C)cc1NC(=O)OC1CC2CCCC(C1)N2Cc1ccc(CC[18F])cc1 (centres unmarked),,"BALB/c mice, EMT6 tumour, kidney",1 h,,tissue uptake,10.4 ± 1.29 %ID/g
CC(C)C[C@H]1NC(=O)[C@H](NC(=O)CN)CSSC[C@H]2NC(=O)[C@H]3CSSC[C@H](C(=O)N[C@H](CC(N)=O)C(=O)N[C@H](Cc4ccccc4)C(=O)N[C@H](CO)C(=O)N[C@H](Cc4ccccc4)C(N)=O)NC(=O)[C@@H](CC(C)C)NC(=O)[C@@H](CCCCN)NC(=O)[C@@H](Cc4ccccc4)NC(=O)[C@@H](CC(C)C)NC(=O)[C@@H](CCCCN)NC(=O)[C@@H](CO)NC(=O)[C@@H](CSSC[C@@H](NC(=O)[C@@H](CCCCN)NC(=O)[C@@H](Cc4c[nH]c5ccccc45)NC(=O)[C@@H](Cc4c[nH]c5ccccc45)NC(=O)[C@@H](Cc4ccccc4)NC(=O)[C@@H](CCC(=O)O)NC1=O)C(=O)N[C@H](CC(N)=O)C(=O)N1CCC[C@@H]1C(=O)N[C@H](CC(N)=O)C(=O)N[C@H](CC(=O)O)C(=O)N[C@H](CC(=O)O)C(=O)N[C@H](CCCCN)C(=O)N3)NC(=O)[C@@H](CCCCN)NC(=O)[C@@H](CC(C)C)NC(=O)[C@@H](CCCCN)NC(=O)[C@H]1CCCN1C(=O)[C@@H](CCCNC(=N)N)NC2=O,,"D2.mdx mice, all tissues","dose not given, two weeks after dosing stopped",reference: peak,concentration,12 to 19%
"[11CH3]Sc1ccc(C(=O)C2CCN(C3Cc4ccccc4CC3O)CC2)cc1 (single isomer, unassigned; (-))",PET imaging,"cynomolgus monkey, striatum",,,maximum uptake,5160 nCi/cc
CC[C@H](C)C(=O)N1CCC(NC(=O)Nc2ccc(OC(F)(F)F)c(F)c2)CC1,,human,"oral, 8 mg, fed and fasted",,half-life,48 to 60 h
CC(C)[C@H](NC(=O)CNC(=O)[C@H](CCC(N)=O)NC(=O)[C@H](C)N)C(=O)O,Definitely drug-related,human,"10 mg/kg, 3 days, thrice daily dosing",,subjects with adverse events,0%
CCCC[C@H](NC(=O)[C@H](Cc1c[nH]c2ccccc12)NC(=O)CNC(=O)[C@H](Cc1ccc(O)cc1)NC(=O)[C@H](C)NC(=O)[C@H](CCC(=O)O)NC(=O)[C@H](Cc1c[nH]cn1)NC(=O)[C@H](Cc1c[nH]cn1)NC(=O)CN1CCN(CC(=O)O)CCN(CC(=O)O)CCN(CC(=O)O)CC1)C(=O)N[C@@H](CC(=O)O)C(=O)N[C@@H](Cc1ccccc1)C(N)=O,,"MF1 nude mouse, male, AR-42J xenograft","intravenous, 0.2 µg, 4 h, 111In-labelled",reference: tumour over kidney,tumour-to-kidney ratio,0.31
COC(=O)C[C@](O)(CCCC(C)(C)OC(C)=O)C(=O)O[C@@H]1C(OC)=C[C@]23CCCN2CCc2cc4c(cc2[C@H]13)OCO4,,"CD1 mouse, large intestine","subcutaneous, 1 mg/kg, 8 h",,tissue concentration,19.4 ng/mL
N=C(N)NCc1ccc(C(=O)NCCCC[C@H](NC(=O)N[C@@H](CCC(=O)O)C(=O)O)C(=O)O)cc1[211At],,"SCID mouse, PC-3 xenografts, kidneys",2 h,,tissue uptake,89 ± 5.2 %ID/g
CN(C)C(CNC(=O)Nc1cc(C(F)(F)F)ccc1N1CCOCC1)c1ccncc1 (centres unmarked),,"mouse, serum","intraperitoneal, 180 mg/kg single dose",,serum albumin,2.8 g/dL
[2H]C([2H])([2H])C([2H])([2H])C([2H])([2H])OC(C(=O)OC1CCNCC1)(c1ccccc1)c1ccccc1,,"male human, plasma","oral, 10 mg, multiple doses",,half-life,60.8 h
CSCC[C@@H]1NC(=O)[C@@H]2CSSC[C@H](NC(=O)[C@H](CO)NC(=O)[C@H](C)N)C(=O)N[C@@H](CCCNC(=N)N)C(=O)N[C@@H]([C@@H](C)O)C(=O)N3CCC[C@H]3C(=O)N[C@@H](CCCCN)C(=O)N[C@@H](CC(=O)O)C(=O)N[C@H]3CSSC[C@H](NC(=O)[C@H](CCCCN)NC(=O)[C@H](CCCNC(=N)N)NC(=O)[C@H](CC(N)=O)NC1=O)C(=O)N[C@@H](CCCCN)C(=O)N[C@H]1CSSC[C@H](NC(=O)[C@@H]4CCCN4C(=O)[C@H](CC(=O)O)NC(=O)[C@H](C)NC3=O)C(=O)N[C@@H](C)C(=O)N[C@@H](CCCCN)C(=O)N[C@@H](CCC(=O)O)C(=O)N[C@@H]([C@@H](C)O)C(=O)NCC(=O)N[C@@H](CSSC[C@@H](C(N)=O)NC(=O)[C@H](CCCNC(=N)N)NC(=O)[C@H](CC(N)=O)NC1=O)C(=O)N1CCC[C@H]1C(=O)N[C@@H](Cc1ccc(O)cc1)C(=O)NCC(=O)N[C@@H](CCCCN)C(=O)N2,,"DA rat, pristane-induced arthritis, serum","subcutaneous, 0.1 mg/kg once weekly, end of 21-day trial",,gamma-glutamyl transferase,0.2 U/L
CCOc1cncc(-c2ccc(NC(=O)C3(c4ccnc(NS(=O)(=O)C5CC5)n4)CCOCC3)nc2)n1,,"NOD-SCID mice, Jurkat xenograft","subcutaneous, dose not given, alternate day dosing",,toxicity,not toxic
CC[C@H](C)[C@H](NC(=O)[C@H](CCC(=O)O)NC(=O)[C@H](CCC(=O)O)NC(=O)[C@H](Cc1ccccc1)NC(=O)[C@H](CC(=O)O)NC(=O)CNC(=O)[C@H](CC(N)=O)NC(=O)CNC(=O)CNC(=O)CNC(=O)CNC(=O)[C@@H]1CCCN1C(=O)[C@H](CCCNC(=N)N)NC(=O)[C@@H]1CCCN1C(=O)[C@H](N)Cc1ccccc1)C(=O)N1CCC[C@H]1C(=O)N[C@@H](CCC(=O)O)C(=O)N[C@@H](CCC(=O)O)C(=O)N[C@@H](Cc1ccc(O)cc1)C(=O)N[C@@H](CC(C)C)C(=O)O,LC-MS/MS,human plasma,"75 days, -80 °C, stability, nominal 240.0 ng/mL",,concentration,239 ± 9.8 ng/mL
CC(C)C[C@H](NC(=O)[C@H](CCCCN)NC(=O)[C@H](CCC(=O)O)NC(=O)[C@H](C)NC(=O)[C@@H](NC(=O)[C@H](CCCCN)NC(=O)[C@H](CC(=O)O)NC(=O)[C@H](Cc1ccc(O)cc1)NC(=O)[C@H](Cc1ccccc1)NC(=O)[C@H](C)NC(=O)[C@H](CCCCN)NC(=O)[C@H](CC(C)C)NC(=O)[C@H](Cc1c[nH]c2ccccc12)NC(=O)[C@@H](N)CC(=O)O)C(C)C)C(=O)N[C@@H](CCCCN)C(=O)N[C@@H](CCC(=O)O)C(=O)N[C@@H](C)C(=O)N[C@@H](Cc1ccccc1)C(=O)N1CCC[C@H]1C(=O)N[C@@H](CC(=O)O)C(=O)N[C@@H](Cc1c[nH]c2ccccc12)C(=O)N[C@@H](C)C(=O)N[C@@H](CCCCN)C(=O)N[C@@H](C)C(=O)N[C@@H](C)C(=O)N[C@@H](Cc1ccc(O)cc1)C(=O)N[C@@H](CC(=O)O)C(=O)N[C@@H](CCCCN)C(=O)N[C@@H](C)C(=O)N[C@@H](C)C(=O)N[C@@H](CCC(=O)O)C(=O)N[C@@H](CCCCN)C(=O)N[C@@H](C)C(=O)N[C@@H](CCCCN)C(=O)N[C@@H](CCC(=O)O)C(=O)N[C@@H](C)C(=O)N[C@@H](C)C(=O)O,,"cynomolgus monkey male, plasma","intravenous infusion, 75 mg/kg, day 1, 30 min infusion",,AUC(0-last),7470 µg·h/mL
COc1cc(NC(=O)C(=O)c2c(C)n(Cc3ccc(Cl)cc3)c3ccc(C)cc23)ccn1,,"cynomolgus monkey, male, plasma","intravenous, 1 mg/kg",,AUC(0-last),1.57 µg·h/mL
CC(C)[C@H](NC(=O)CNC(=O)[C@H](CCC(N)=O)NC(=O)[C@H](C)N)C(=O)O,,healthy male volunteers,"intravenous, 15 mg/kg/h, 2 h, with: LPS 2 ng/kg",,subjects with Definitely related AE,0%
CSCC[C@H](NC(=O)[C@H](CO)NC(=O)[C@H](Cc1ccc(O)cc1)NC(=O)[C@@H](N)CO)C(=O)N[C@@H](CCC(=O)O)C(=O)N[C@@H](Cc1c[nH]cn1)C(=O)N[C@@H](Cc1ccccc1)C(=O)N[C@@H](CCCNC(=N)N)C(=O)N[C@@H](Cc1c[nH]c2ccccc12)C(=O)NCC(=O)N[C@@H](CCCCN)C(=O)N1CCC[C@H]1C(=O)N[C@H](C(=O)NCC(=O)N[C@@H](CCCCN)C(=O)N[C@@H](CCCCN)C(=O)N[C@@H](CCCNC(=N)N)C(=O)N[C@@H](CCCNC(=N)N)C(=O)N1CCC[C@H]1C(=O)N[C@H](C(=O)N[C@@H](CCCCN)C(=O)N[C@H](C(=O)N[C@@H](Cc1ccc(O)cc1)C(=O)N1CCC[C@H]1C(=O)N[C@@H](CC(=O)O)C(=O)NCC(=O)N[C@@H](C)C(=O)N[C@@H](CCC(=O)O)C(=O)N[C@@H](CC(=O)O)C(=O)N[C@@H](CCC(=O)O)C(=O)N[C@@H](CC(C)C)C(=O)N[C@@H](C)C(=O)N[C@@H](CCC(=O)O)C(=O)N[C@@H](C)C(=O)N[C@@H](Cc1ccccc1)C(=O)N1CCC[C@H]1C(=O)N[C@@H](CC(C)C)C(=O)N[C@@H](CCC(=O)O)C(=O)N[C@@H](Cc1ccccc1)C(=O)O)C(C)C)C(C)C)C(C)C,,"healthy human subjects, plasma","subcutaneous, 40 IU twice weekly, day 15, repository corticotropin injection",,AUC(0-last),0.000415 µg·h/mL
Cc1ccccc1CN1CCC(O)(c2ccc(Cl)c(C(F)(F)F)c2)CC1,,"female BALB/c mouse, serum","intraperitoneal, 50 mg/kg",,peripheral volume of distribution,2 L
CC(C)C[C@@H]1NC(=O)C[C@@H](C(=O)N[C@@H](Cc2c[nH]c3ccccc23)C(=O)N[C@@H](CC(N)=O)C(=O)N[C@@H](C)C(=O)N2CCC[C@H]2C(=O)NCC(=O)N[C@@H](Cc2c[nH]c3ccccc23)C(=O)N[C@@H](Cc2ccccc2)C(=O)O)NC(=O)[C@H](C)NC(=O)[C@H](CCC(N)=O)NC(=O)[C@H](C(C)C)NC(=O)[C@H](C)NC(=O)[C@H](C(C)C)NC(=O)[C@H](C(C)C)NC1=O,HPLC,,"3 h, 95 °C",,thermal stability,stable
[11CH3]n1c(=O)n(CCCO)c(=O)c2c1nc(Oc1cccc(OC(F)(F)F)c1)n2Cc1ccc(Cl)cc1,ex vivo biodistribution,"Sprague Dawley rat, spleen",30 min post injection,,tracer uptake,0.63 ± 0.03 %ID/g
